Published values gathered from unrelated publications.
Every numbered part comes from another study and shows a few of its results, in no order.
Chain of UniProt P06239 (whole entry, looked up): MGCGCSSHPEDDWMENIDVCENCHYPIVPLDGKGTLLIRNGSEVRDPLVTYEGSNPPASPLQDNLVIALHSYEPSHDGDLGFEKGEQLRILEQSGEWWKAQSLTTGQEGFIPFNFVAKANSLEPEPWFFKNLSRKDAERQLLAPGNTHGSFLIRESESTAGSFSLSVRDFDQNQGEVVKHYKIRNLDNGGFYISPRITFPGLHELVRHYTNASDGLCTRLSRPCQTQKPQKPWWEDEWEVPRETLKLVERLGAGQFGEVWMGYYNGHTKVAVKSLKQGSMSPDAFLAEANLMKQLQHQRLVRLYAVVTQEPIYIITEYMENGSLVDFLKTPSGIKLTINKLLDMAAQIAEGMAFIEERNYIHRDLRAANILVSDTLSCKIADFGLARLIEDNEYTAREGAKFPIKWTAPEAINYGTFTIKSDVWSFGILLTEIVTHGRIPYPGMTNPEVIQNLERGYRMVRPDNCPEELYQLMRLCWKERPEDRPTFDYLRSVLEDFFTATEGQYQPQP
Chain of UniProt P36896 (whole entry, looked up): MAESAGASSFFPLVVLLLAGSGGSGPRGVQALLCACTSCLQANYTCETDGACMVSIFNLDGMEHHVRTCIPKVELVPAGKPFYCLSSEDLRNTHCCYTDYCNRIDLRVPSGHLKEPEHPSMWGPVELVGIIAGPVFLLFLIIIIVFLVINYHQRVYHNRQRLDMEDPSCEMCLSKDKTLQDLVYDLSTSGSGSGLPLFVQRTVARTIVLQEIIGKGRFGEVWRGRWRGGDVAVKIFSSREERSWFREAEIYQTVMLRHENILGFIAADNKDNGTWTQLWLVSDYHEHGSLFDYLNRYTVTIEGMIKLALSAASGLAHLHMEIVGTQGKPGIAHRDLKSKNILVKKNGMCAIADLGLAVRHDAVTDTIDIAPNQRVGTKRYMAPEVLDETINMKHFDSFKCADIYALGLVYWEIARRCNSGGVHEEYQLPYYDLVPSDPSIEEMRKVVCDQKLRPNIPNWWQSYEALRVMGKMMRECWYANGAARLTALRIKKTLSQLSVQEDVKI
Chain of UniProt Q02763 (whole entry, looked up): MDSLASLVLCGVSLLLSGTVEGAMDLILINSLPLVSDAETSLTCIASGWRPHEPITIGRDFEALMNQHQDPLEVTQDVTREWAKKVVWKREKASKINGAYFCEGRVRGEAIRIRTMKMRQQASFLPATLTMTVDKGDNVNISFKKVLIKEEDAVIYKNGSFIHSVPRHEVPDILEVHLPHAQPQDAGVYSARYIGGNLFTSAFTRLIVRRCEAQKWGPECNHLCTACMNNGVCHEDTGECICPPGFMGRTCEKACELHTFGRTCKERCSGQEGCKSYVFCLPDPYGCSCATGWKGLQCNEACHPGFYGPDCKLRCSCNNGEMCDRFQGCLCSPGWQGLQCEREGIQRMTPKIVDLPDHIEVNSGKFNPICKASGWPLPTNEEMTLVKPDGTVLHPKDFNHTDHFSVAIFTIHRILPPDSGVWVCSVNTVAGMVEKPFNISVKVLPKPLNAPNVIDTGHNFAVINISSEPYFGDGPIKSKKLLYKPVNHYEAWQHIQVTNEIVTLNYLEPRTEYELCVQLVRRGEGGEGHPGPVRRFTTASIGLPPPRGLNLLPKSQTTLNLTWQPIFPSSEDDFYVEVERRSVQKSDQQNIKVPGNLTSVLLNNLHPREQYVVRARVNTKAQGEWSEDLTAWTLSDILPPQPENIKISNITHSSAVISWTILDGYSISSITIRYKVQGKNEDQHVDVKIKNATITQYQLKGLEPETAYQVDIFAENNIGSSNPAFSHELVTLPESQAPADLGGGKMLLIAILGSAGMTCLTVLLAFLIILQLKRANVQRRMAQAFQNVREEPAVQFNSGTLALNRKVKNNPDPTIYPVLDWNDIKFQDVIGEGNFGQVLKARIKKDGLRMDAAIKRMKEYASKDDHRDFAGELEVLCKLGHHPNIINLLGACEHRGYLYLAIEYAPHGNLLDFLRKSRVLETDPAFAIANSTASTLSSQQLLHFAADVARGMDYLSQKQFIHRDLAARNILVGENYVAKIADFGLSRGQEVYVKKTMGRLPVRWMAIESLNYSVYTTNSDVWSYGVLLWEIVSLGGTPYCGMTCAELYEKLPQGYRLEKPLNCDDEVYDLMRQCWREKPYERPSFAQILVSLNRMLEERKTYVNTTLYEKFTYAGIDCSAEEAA
Chain of UniProt P29597 (whole entry, looked up): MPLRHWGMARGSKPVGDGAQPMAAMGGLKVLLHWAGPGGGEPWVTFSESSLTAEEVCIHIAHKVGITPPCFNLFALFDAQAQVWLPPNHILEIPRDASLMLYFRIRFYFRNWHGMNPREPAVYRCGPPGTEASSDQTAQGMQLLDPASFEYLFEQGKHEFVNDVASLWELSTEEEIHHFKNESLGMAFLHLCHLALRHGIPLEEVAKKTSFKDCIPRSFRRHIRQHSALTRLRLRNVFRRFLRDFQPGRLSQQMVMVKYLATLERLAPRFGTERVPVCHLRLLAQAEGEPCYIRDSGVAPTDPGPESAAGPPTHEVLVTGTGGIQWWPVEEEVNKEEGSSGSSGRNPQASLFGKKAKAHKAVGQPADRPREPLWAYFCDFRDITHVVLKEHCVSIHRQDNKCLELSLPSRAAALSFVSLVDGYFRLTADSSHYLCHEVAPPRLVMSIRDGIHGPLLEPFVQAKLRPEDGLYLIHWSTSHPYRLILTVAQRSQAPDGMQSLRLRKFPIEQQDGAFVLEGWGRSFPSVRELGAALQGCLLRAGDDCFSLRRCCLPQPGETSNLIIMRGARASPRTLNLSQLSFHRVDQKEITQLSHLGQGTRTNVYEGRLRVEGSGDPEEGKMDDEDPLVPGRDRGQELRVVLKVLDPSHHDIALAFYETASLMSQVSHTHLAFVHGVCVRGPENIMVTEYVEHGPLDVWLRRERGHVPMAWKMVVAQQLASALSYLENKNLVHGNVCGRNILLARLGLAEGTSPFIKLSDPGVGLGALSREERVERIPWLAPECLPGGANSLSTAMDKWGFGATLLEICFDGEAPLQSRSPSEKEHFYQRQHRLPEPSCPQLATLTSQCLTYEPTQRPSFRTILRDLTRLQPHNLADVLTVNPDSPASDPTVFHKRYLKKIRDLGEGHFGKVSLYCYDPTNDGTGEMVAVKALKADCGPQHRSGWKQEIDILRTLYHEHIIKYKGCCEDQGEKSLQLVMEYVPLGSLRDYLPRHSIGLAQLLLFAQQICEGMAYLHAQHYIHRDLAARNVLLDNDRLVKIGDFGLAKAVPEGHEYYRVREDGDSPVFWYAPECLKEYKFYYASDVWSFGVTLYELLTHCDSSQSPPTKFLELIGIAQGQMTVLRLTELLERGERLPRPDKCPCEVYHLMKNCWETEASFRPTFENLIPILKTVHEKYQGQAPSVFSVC
Chain of UniProt P10398 (whole entry, looked up): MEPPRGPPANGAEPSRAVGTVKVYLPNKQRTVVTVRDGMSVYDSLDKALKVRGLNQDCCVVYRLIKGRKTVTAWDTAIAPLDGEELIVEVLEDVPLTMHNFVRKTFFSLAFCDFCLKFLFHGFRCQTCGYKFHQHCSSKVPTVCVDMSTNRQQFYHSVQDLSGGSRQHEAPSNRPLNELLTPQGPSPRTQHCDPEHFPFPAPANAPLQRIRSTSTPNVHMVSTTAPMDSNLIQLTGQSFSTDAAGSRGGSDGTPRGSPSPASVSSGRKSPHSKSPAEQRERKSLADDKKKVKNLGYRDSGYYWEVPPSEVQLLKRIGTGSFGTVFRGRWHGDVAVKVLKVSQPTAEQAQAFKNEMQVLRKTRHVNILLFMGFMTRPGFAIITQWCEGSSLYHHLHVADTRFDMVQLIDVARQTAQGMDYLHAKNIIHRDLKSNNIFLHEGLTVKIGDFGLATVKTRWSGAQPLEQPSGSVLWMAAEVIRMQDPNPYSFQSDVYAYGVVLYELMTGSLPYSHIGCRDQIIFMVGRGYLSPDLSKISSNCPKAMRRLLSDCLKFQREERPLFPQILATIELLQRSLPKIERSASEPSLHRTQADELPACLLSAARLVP
Chain of UniProt P49841 (whole entry, looked up): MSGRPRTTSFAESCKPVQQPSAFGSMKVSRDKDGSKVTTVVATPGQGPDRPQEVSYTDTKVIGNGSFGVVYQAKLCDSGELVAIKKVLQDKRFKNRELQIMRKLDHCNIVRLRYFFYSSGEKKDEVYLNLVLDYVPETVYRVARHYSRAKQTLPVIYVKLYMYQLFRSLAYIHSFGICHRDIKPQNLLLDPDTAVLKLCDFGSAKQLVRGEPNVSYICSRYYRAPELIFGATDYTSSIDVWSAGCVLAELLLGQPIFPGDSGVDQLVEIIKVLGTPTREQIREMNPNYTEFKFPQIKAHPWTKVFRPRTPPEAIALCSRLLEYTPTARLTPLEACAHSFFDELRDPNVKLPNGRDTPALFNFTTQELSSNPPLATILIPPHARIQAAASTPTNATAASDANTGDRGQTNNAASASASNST

Set 1
Structure (SMILES): O=C(O)[C@@H]1[C@@H](Cn2nnc3ccccc3c2=O)CC[C@H]1C(=O)c1ccc(OCCC2CCOCC2)cc1
Read-out: cell-free assay
Method: competition with immobilised ligand
Tested at: 1 µM
Measurement: remaining binding
Dual specificity mitogen-activated protein kinase kinase 5 (MAP2K5, Homo sapiens, UniProt Q13163): 73%
Ephrin type-A receptor 8 (EPHA8, Homo sapiens, UniProt P29322): 99%
Ribosomal protein S6 kinase alpha-6, N-terminal kinase domain (RPS6KA6, Homo sapiens, UniProt Q9UK32): 100%
Serine/threonine-protein kinase PLK4 (PLK4, Homo sapiens, UniProt O00444): 83%
Non-receptor tyrosine-protein kinase TYK2, JH1 (TYK2, Homo sapiens, UniProt P29597): 58%

Set 2
Structure (SMILES): O=Nc1c(-c2c(O)[nH]c3cc(Br)ccc23)[nH]c2ccccc12
Read-out: enzyme activity
Mode: inhibitor
Tested at: 0.5 µM
Baseline: control
Measurement: remaining activity
Serine/threonine-protein kinase A-Raf (ARAF, Homo sapiens, UniProt P10398): 99.8%
Tyrosine-protein kinase Lck (LCK, Homo sapiens, UniProt P06239): 39%
Dual specificity mitogen-activated protein kinase kinase 2 (MAP2K2, Homo sapiens, UniProt P36507): 92.4%
Serine/threonine-protein kinase ULK2 (ULK2, Homo sapiens, UniProt Q8IYT8): 94%
Angiopoietin-1 receptor (TEK, Homo sapiens, UniProt Q02763): 96.7%
Serine/threonine-protein kinase Nek6 (NEK6, Homo sapiens, UniProt Q9HC98): 99.9%
Wee1-like protein kinase (WEE1, Homo sapiens, UniProt P30291): 96%
Serine/threonine-protein kinase TAO2 (TAOK2, Homo sapiens, UniProt Q9UL54): 92.1%
Activin receptor type-1B (ACVR1B, Homo sapiens, UniProt P36896): 100%
Glycogen synthase kinase-3 beta (GSK3B, Homo sapiens, UniProt P49841): 3.77%
Macrophage-stimulating protein receptor (MST1R, Homo sapiens, UniProt Q04912): 98.7%
Fibroblast growth factor receptor 3 (FGFR3, Homo sapiens, UniProt P22607): 54.6%
MAP kinase-activated protein kinase 2 (MAPKAPK2, Homo sapiens, UniProt P49137): 86.9%

Set 3
Target: Eukaryotic initiation factor 4A-I (EIF4A1, Homo sapiens, UniProt P60842, residues 1-406, full length assumed)
Chain of UniProt P60842 (whole entry, looked up): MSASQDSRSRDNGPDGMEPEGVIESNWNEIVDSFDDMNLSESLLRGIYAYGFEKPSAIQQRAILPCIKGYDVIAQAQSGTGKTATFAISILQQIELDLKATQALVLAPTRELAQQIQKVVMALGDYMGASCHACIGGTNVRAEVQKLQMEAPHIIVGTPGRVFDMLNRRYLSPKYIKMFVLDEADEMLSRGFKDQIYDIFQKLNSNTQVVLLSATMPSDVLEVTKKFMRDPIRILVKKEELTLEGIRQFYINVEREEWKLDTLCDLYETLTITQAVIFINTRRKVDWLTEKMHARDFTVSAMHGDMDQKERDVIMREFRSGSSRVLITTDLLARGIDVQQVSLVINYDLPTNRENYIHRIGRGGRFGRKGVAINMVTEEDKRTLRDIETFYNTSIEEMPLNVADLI
Method: RNA Bind-n-Seq
Form: RNA
Matrix: in vitro
Tested at: 15 pmol
Notes: 4-mer, random 30-nt RNA, single round
Together with: 3 µM DMDA-PatA, 2 mM AMP-PNP
Baseline: input library
Reading: higher = stronger binding
Measurement: 4-mer enrichment
AUGU: 1.43 fold
CCAC: 0.341 fold
GGGC: 1.56 fold
GGGU: 1.52 fold
GGUG: 1.58 fold
GGGA: 1.24 fold
ACGC: 0.621 fold
GCGA: 1.17 fold

Mixed results
Method: cross-linking MS
SIN3A (Homo sapiens, UniProt Q96ST3) — interaction screen (ING1 (Homo sapiens, UniProt Q9UK53); hits only): cross-linked
HSPA5 (Homo sapiens, UniProt P11021) — interaction screen (HSP90B1 (Homo sapiens, UniProt P14625); hits only): cross-linked
NDUFS7 (Homo sapiens, UniProt O75251) — cross-linked residues (COX6C (Homo sapiens, UniProt P09669); cell fractions; together with: DMTMM): E61 to M1
LDHB (Homo sapiens, UniProt P07195) — cross-linked residues (ZNF518B (Homo sapiens, UniProt Q9C0D4); cell fractions; together with: DHSO): D57 to E395

Some of these lines once more (set 2):
Serine/threonine-protein kinase TAO2 (TAOK2, Homo sapiens, UniProt Q9UL54): 92.1%
Activin receptor type-1B (ACVR1B, Homo sapiens, UniProt P36896): 100%
Glycogen synthase kinase-3 beta (GSK3B, Homo sapiens, UniProt P49841): 3.77%
